Results from different studies.
Numbered parts are unrelated; each lists some results of a single study.

Series 1 — technique: RNA Bind-n-Seq; form: RNA; sample: in vitro; tested at: 200 nM; notes: whole 134-nt RNA, ends assumed; with: 150 mM LiCl; baseline: input library; reading: higher = stronger binding; library: 7-deaza-guanosine replaces G
Target: Fragile X messenger ribonucleoprotein 1, C-terminal low-complexity region (Fmr1, Mus musculus, UniProt P35922)
Shared flanks, not repeated: GGGAGUUCUACAGUCCGACGAUC … UGGAAUUCUCGGGUGUCAAGG
`GCAGGAAGUAAAAACAAAUGGAAAUGCUUCGGAUAGUGGCAGGGGUGGGGGUUGGUAAGGAAAGGGUGGGAUGGGAGUGGGUAAAGAGUU` gave a log2 enrichment of 1.64.
The log2 enrichment of `UCAAGUCCUGUGCUACACAUCGUAUGUACCGAAUCGGGUUUUUGGGUGGGUGGGAAAGUAUUAUGUUACGCCGUUCGGAUCUGCACUUCC` is reported as -1.39.
`AGUCCUGUGCUACACAUCGUAUGUACCGAAUCGGGAAAAAAAGGGUGGGAAAAAGGGAAAGUAUUAUGUUACGCCGUUCGGAUCUGCACU` gave a log2 enrichment of -1.18.
With `UCAAGUCCUGUGCUACACAUCGUAUGUACCGAAUCGGGGUUGGGGUUGGGUUGGAAAGUAUUAUGUUACGCCGUUCGGAUCUGCACUUCC` the log2 enrichment was -0.789.
`CUGUGCUACACAUCGUAUGUACCGAAUCGGCCCCCCCGGGCCCCCCCGGGGCCCCCCCGGGAAAGUAUUAUGUUACGCCGUUCGGAUCUG` has a log2 enrichment of -0.441.
With `UCAAGUCCUGUGCUACACAUCGUAUGUACCGAAUCGGGCCGGGGCCGGCCGGGGAAAGUAUUAUGUUACGCCGUUCGGAUCUGCACUUCC` the log2 enrichment was 0.242.
With `AAGUCCUGUGCUACACAUCGUAUGUACCGAAUCGGGUGGGUUUUUGGGUUUUUGGGAAAGUAUUAUGUUACGCCGUUCGGAUCUGCACUU` the log2 enrichment was -1.47.
With `CCUGUGCUACACAUCGUAUGUACCGAAUCGGGUUUUUGGGAAAAAAAGGGAAAAAAAGGGAAAGUAUUAUGUUACGCCGUUCGGAUCUGC` the log2 enrichment was -1.87.
The log2 enrichment of `AGUCCUGUGCUACACAUCGUAUGUACCGAAUCGGGGAAAGGGGUGGGGUUUUUGGGGAAAGUAUUAUGUUACGCCGUUCGGAUCUGCACU` is reported as -0.929.
The log2 enrichment of `CCUCAAGUCCUGUGCUACACAUCGUAUGUACCGAAUCGGUUUGGAGGUUUGGAAAGUAUUAUGUUACGCCGUUCGGAUCUGCACUUCCAG` is reported as -1.14.
For `AAGUCCUGUGCUACACAUCGUAUGUACCGAAUCGGGGAAAAAGGGGAGGGGUGGGGAAAGUAUUAUGUUACGCCGUUCGGAUCUGCACUU`, the log2 enrichment was -0.156.

Series 2 — technique: protein-binding microarray; form: double-stranded DNA, one strand shown; sample: in vitro; tested at: 250 nM; notes: 60-bp whole probe; with: salmon DNA 0.4 mg/ml; baseline: random background probes; reading: higher = stronger binding; shared flanks, not repeated: GCCTAGCAC … GTCTTGATTCGCTTGACGCTGCTG
Target: Interferon regulatory factor 7, full length, phosphomimetic (IRF7, Homo sapiens, UniProt Q92985, residues 1-503, S101K/S471D/S472D/S475D/S476D/S477D/S483D/S484D/S487D)
Chain of UniProt Q92985 (whole entry, unmodified, looked up): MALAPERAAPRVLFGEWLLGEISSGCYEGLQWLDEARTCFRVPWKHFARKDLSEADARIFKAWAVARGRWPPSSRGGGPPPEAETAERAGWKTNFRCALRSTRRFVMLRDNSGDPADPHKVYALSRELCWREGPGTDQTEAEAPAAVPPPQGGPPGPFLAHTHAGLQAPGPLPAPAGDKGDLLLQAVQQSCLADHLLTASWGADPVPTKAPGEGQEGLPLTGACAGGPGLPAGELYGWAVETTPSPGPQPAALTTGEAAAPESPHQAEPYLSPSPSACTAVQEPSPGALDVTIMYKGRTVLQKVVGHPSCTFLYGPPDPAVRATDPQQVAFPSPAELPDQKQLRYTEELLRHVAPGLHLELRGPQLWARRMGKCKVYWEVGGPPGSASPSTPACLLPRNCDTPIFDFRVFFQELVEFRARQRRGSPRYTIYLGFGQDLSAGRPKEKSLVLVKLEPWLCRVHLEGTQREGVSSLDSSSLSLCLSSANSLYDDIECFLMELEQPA
`TTAGCACTGGACTTTCGGTTAGTGCTA` has a log fluorescence of 0.243 z-score.
`TCACATTTCCTTTACATACTGTGCTAG` gave a log fluorescence of 1.68 z-score.
With `GACGGTACCGACACTGGGGACGTGCTA` the log fluorescence was -0.507 z-score.
For `TTAGGTTTCGGGTTCGGTTAGTGCTAG`, the log fluorescence was 11.2 z-score.
For `TTAGATATCAGTATCGGTTAGTGCTAG`, the log fluorescence was 1.18 z-score.
`TTCGGTATCGGACTGGGTTAGTGCTAG` gave a log fluorescence of 0.185 z-score.
`CACAACCAAACAAGAAGATGGTGCTAG` has a log fluorescence of -0.0566 z-score.
For `ATTAGTATGTTCACTATTTAAGTGCTA`, the log fluorescence was 0.22 z-score.
With `GACAATCTCAGACTGGAGACGTGCTAG` the log fluorescence was -0.283 z-score.
With `GACGGACTGCTTTTCCGGACGTGCTAG` the log fluorescence was 0.0858 z-score.
For `TCATTTTTCTAACTAAAACTGTGCTAG`, the log fluorescence was 1.47 z-score.
`GACGGACTGGGGTTTGGGGACGTGCTA` has a log fluorescence of -0.434 z-score.
`TCAAATGCCCTTTTGGTACTGTGCTAG` has a log fluorescence of 0.0362 z-score.
`TTAGGTTTCGCGTATCGGTTAGTGCTA` has a log fluorescence of 3.64 z-score.
The log fluorescence of `GAAGATTTCAGTATCGAGACGTGCTAG` is reported as 0.31 z-score.
`TTAGGTATCGACTGTCGGTTAGTGCTA` has a log fluorescence of -0.0644 z-score.
`TTCGATATCAGACTGGATTAGTGCTAG` gave a log fluorescence of 0.213 z-score.
The log fluorescence of `TTAGGACTGGGGACTGGGGTAGTGCTA` is reported as -0.385 z-score.
With `TTAGGACTGGGGTATCGGTTAGTGCTA` the log fluorescence was 0.197 z-score.

Series 3 — technique: RNA Bind-n-Seq; form: RNA; sample: in vitro; tested at: 365 nM; baseline: no-protein control; reading: higher = stronger binding
Target: RNA binding protein fox-1 homolog 2, RRM domain, GST-SBP tag (RBFOX2, Homo sapiens, UniProt O43251-10, residues 100-194)
Notes: natural RNA segment, single round, ends assumed
Shared flanks, not repeated: GGGAGUUCUACAGUCCGACGAUC … UGGAAUUCUCGGGUGCCAA
Target sequence (chain): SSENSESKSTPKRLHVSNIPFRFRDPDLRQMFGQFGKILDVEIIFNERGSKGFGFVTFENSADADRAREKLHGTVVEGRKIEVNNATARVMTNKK
Under “RBNS enrichment (R)”, `UAGUUAUAUUCCUACAAUACAAUUUUAAAAUUGUCUUUUUAUAUUAUAUUUAUGCUUCUGUGUCAUGAUUUUUUCAAGCUGUUAUAUUAGUUGUAACCAGUAGUAUUCAC` is recorded as 1.8.
`ACAUCUGCCUGAUUCUUGCCAACACGAGGGGUGGAAAUGGGAGAAAAAGCUUUUAGUUGCUAAUUUGUUUCCGCUGAGCCAAGUGUUUGAGAAACCUGGACUAGAGCUUA`: “RBNS enrichment (R)” 0.656.
`GUAUAUUAUAUCUUAAGUCAGUUUCCGUGGCAUCUACUGAAUAAAAAUUCAGCAGAUCUCCUUUCUAGGUGCAACUGUUCAGUGAAUUCCCUCACUAAAAGCUUAAGCAA` — result for “RBNS enrichment (R)”: 0.36.
Under “RBNS enrichment (R)”, `AGAAACUUUGCCAACCUGUUAGUGUACACACACUGAGGGGAGUGCUCCCGGUGAAUAUUAUCAUAGGGCUUUAUUAUAUUCUUGGUCUUCAUUUCUGAUCAAGUAAAUAC` is recorded as 0.305.
Under “RBNS enrichment (R)”, `CCUUGGCUCUAACUCUGCUGCUCUGGUCUCCCAGAGCCUCUAGGGGCAGGGGAGUGCUCCACAAGGUGGUUUGCUGGCUUCAGAGCCCUAGAAGCACAAGACAGUGGAGC` is recorded as 0.206.
`GCCUCUCCCCAUGGCUGGGGCAGCCCCGCCCCCUCCCUGGGUGCAUCUGCCCUCUGAGUUCUUUCUGUGUGAUCUAUUUUUUAAGAAGAGUUUGUAUUAUUUUUUCAUAA`: “RBNS enrichment (R)” 1.52.
For `UCCUCGCCAGGGAUCUGGGUGGGACAGUCACACCCACGGCCUGCUACCCACCAGGUUGUACUUAACGCAAUCAGAAGGGGUUCAUGGCAAUAUAACAGUUAAUGAACUUG`, “RBNS enrichment (R)” read 0.273.
Under “RBNS enrichment (R)”, `UAAAAACCUAAUACUAAGCAAUAUGAAGCUGCACUCUGCUUUUAAGUGAGGCCAAGCCAAGUAAGCCAGAGGGGGAGGGGCAUUUGCUUUCCAAAUCCUAAGGAAAAAUG` is recorded as 0.415.
For `CAAAGAAGCCACUGUUUGGGGAUGGCGCCCUGGAAAACAGCCUCCCACCUGGGAUAGCUAGAGCAUCCACACGUGGAAUUCUUUCUUUACUAACAAACGAUAGCUGAUUG`, “RBNS enrichment (R)” read 0.866.
`CUCCACCCGCUCUUCCUUCCCAGCCUGCCUGCAUGCAUGUGCACCCUUGGUCUUCGCUCCAUCGCCUUGAAAGCUCUGAAGAGGCCCUGGGUUGCCGCGGCAGCAGUGGU`: “RBNS enrichment (R)” 25.8.
`CAACAUCUGAAGGCUUAAAGAACAUUGUCGUUCUUCAGCCCUCCUUGCUUCUCUCAAUACAAUAAGACAUUGCAGAAGCAAAAGGGUGGCCUCUGCUCCAGGCAAGGCAG` — result for “RBNS enrichment (R)”: 0.308.
For `AAAAUGUACAUGAAGCUCCUUUCUGAUAUAGAAACCAUUUCUGGAGUAUUUACACUGGUUUGAUGUUUACAUUGCUCUAACUCGGUGCCUCAGAUACCUCUGUGACCAAA`, “RBNS enrichment (R)” read 0.605.

Series 4 — technique: protein-binding microarray; form: double-stranded DNA, one strand shown; sample: in vitro; tested at: not given; reading: higher = stronger binding
Target: Myc proto-oncogene protein, bHLH-zipper, MAX partner unstated (MYC, Homo sapiens, UniProt P01106, residues 368-449)
Chain of UniProt P01106 (368-449, looked up): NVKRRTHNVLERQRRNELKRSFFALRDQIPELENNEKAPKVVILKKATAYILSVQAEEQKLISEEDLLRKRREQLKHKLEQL
Notes: k-mer, scored over probes, only values ≥0.25
For `ACATGCCA`, the E-score was 0.388.
The E-score of `ATCCATGC` is reported as 0.358.
`CATATGCC` gave an E-score of 0.321.
`CCATGCTC` gave an E-score of 0.358.
For `ATACACGA`, the E-score was 0.259.
For `CCGGCGCG`, the E-score was 0.264.
The E-score of `AACACATG` is reported as 0.462.
`CCCCAAGC` gave an E-score of 0.288.
The E-score of `CATGTCGC` is reported as 0.321.
With `CGATCACG` the E-score was 0.283.
`CATATGTC` has an E-score of 0.251.
`CCACACCA` has an E-score of 0.319.
`CATGAGGC` gave an E-score of 0.442.
`AATATGGC` has an E-score of 0.271.
With `GCGCACAC` the E-score was 0.347.
`ACGAGGAC` has an E-score of 0.362.
The E-score of `AGAGCGTG` is reported as 0.367.
The E-score of `CACTCCAC` is reported as 0.287.
`CGCATTGC` gave an E-score of 0.326.
With `CATGACCA` the E-score was 0.265.
`GGAGGGGA` has an E-score of 0.266.
The E-score of `CATGGCAG` is reported as 0.343.
For `GCCACCCC`, the E-score was 0.343.
`ACATGGAC` gave an E-score of 0.33.
With `CGTGGAAG` the E-score was 0.337.

A few entries again (series 4):
`CATGAGGC` gave an E-score of 0.442.
With `CGTGGAAG` the E-score was 0.337.
The E-score of `AACACATG` is reported as 0.462.
The E-score of `CATGGCAG` is reported as 0.343.
`CATATGCC` gave an E-score of 0.321.
`CCCCAAGC` gave an E-score of 0.288.
For `CCGGCGCG`, the E-score was 0.264.
`CCATGCTC` gave an E-score of 0.358.
With `CGATCACG` the E-score was 0.283.
For `ACATGCCA`, the E-score was 0.388.
